Measurements pooled from the literature.
Each line is one published result; not all experiments were run side by side. ± marks the error that the study gave.

For `C[C@@H](N)c1cc(Cl)ccc1Cn1c(=S)[nH]c(=O)c2[nH]ccc21`, the Cmax was 17 nM (healthy Japanese volunteers, plasma; oral, 5 mg once daily, day 1, geometric mean).
The Cmax of `Cc1nc(-c2ccc(OCC(C)C)c(C#N)c2)sc1C(=O)O` is reported as 4330 ± 1250 ng/mL (healthy Chinese adults, plasma; oral, 80 mg single dose, fasting).
For `CC(C)=CCC[C@](C)(O[C@@H]1O[C@H](CO)[C@@H](O)[C@H](O)[C@H]1O)[C@H]1CC[C@]2(C)[C@@H]1[C@H](O)C[C@@H]1[C@@]3(C)CC[C@H](O[C@@H]4O[C@H](CO)[C@@H](O)[C@H](O)[C@H]4O)C(C)(C)[C@@H]3CC[C@]12C`, the Cmax was 0.68 ± 0.32 ng/mL (LC-MS/MS; healthy volunteers, serum; oral, 3 g red ginseng).
`CC(C)(Sc1ccncc1-c1ccc(C#N)c2ccccc12)C(=O)O` has a Cmax of 21.9 ng/mL (Japanese male subjects, plasma; oral, 10 mg, single dose, fed, geometric least squares mean).
With `Cc1ccc(Sc2ccccc2N2CCNCC2)c(C)c1` the Cmax was 21.4 ng/mL (healthy men, plasma; oral, 20 mg once daily, fed, day 12).
For `CCC[C@H](N[C@@H](C)C(=O)N1[C@H](C(=O)O)C[C@@H]2CCCC[C@@H]21)C(=O)O`, the Cmax was 5.96 ± 3 ng/mL (healthy Chinese volunteers, plasma; oral, 4 mg perindopril tert-butylamine, fasting, added: indapamide 1.25 mg).
For `CNC(=O)c1cc(Oc2ccc(NC(=O)Nc3ccc(Cl)c(C(F)(F)F)c3)c(F)c2)ccn1`, the Cmax was 5300 ng/mL (metastatic colorectal cancer patients, plasma; oral, 120 mg once daily, steady state, alone).
`Cc1ccnc2c1NC(=O)c1cccnc1N2C1CC1` has a Cmax of 192 ± 61.5 ng/mL (olive baboon (Papio anubis), female, non-pregnant, serum; oral, 5 mg/kg, solution, single dose).
For `CC(C)(Sc1ccncc1-c1ccc(C#N)c2ccccc12)C(=O)O`, the Cmax was 25.6 ng/mL (male, plasma; oral, 15 mg, mild renal impairment, fasted).
With `C[C@@H](O)[C@H]1C(=O)N2C(C(=O)O)=C(S[C@@H]3CN[C@H](C(=O)N(C)C)C3)[C@H](C)[C@H]12` the Cmax was 67000 ng/mL (pig (Danish Landrace), plasma, free concentration; iv infusion, 1000 mg over 10 min, added: vancomycin co-administered).
The Cmax of `Nc1ncc(-c2cnn(CCO)c2)c2scc(-c3ccc(NC(=O)Nc4cccc(F)c4)cc3)c12` is reported as 1760 ± 790 ng/mL (patient, plasma; oral, 320 mg twice weekly, day 15, trial).
For `NC(=O)c1cnc2[nH]ccc2c1N[C@@H]1[C@@H]2CC3C[C@H]1C[C@@](O)(C3)C2`, the Cmax was 350 ng/mL (Japanese, normal hepatic function, plasma; oral, 150 mg single dose, mean).
`CN1C(=O)[C@@H](NC(=O)c2nnc(Cc3ccccc3)[nH]2)COc2ccccc21` has a Cmax of 281 ng/mL (healthy men, plasma; oral, 20 mg once daily, day 1, geometric mean).
For `COc1c(N2C[C@@H]3CCCN[C@@H]3C2)c(F)cc2c(=O)c(C(=O)O)cn(C3CC3)c12`, the Cmax was 2270 ng/mL (HPLC-MS/MS; healthy adults, plasma; oral, 400 mg).
`COc1cc(OC)c(/C=C/S(=O)(=O)Cc2ccc(OC)c(NCC(=O)O)c2)c(OC)c1` has a Cmax of 730 ± 440 ng/mL (cancer patients, phase I, plasma; oral, 280 mg twice daily, day 21 cycle 1).
The Cmax of `N[C@@H](CC(=O)N1CCn2c(nnc2C(F)(F)F)C1)Cc1cc(F)c(F)cc1F` is reported as 466 ± 112 ng/mL (healthy Korean subjects, plasma; oral, 100 mg single dose, ABCB1 G2677T/A TT).
The Cmax of `CC(C(=O)O)c1ccc(-c2ccccc2)c(F)c1` (centres unmarked) is reported as 9800 ± 4300 ng/mL (healthy volunteers, plasma; oral, 100 mg, arithmetic mean, added: control beverage 250 mL).

A few entries again:
`Cc1ccnc2c1NC(=O)c1cccnc1N2C1CC1` has a Cmax of 192 ± 61.5 ng/mL (olive baboon (Papio anubis), female, non-pregnant, serum; oral, 5 mg/kg, solution, single dose).
